Published values pooled from the literature.
Parts stem from different laboratories: compare values within a part only. Changes are numbered by the printed parent chain.

Set 1
Target: Prothrombin, mature alpha-thrombin (F2, Homo sapiens, UniProt P00734)
Technique: aptamer microarray, sandwich
Form: DNA with 2'F-ANA
Medium: in vitro
Tested at: 200 nM
Notes: whole 15-mer aptamer, many near background
Added: Cy3 exosite-II aptamer, 400 nM
Reading: higher = stronger binding
Strand: GGTTGGTGTGGTTGG
Modification | mean fluorescence intensity [a.u.]
2'F-ANA at 2 3 4 9 | 596
2'F-ANA at 2 3 6 9 10 11 12 13 14 | 244
2'F-ANA at 1 3 6 8 9 10 14 15 | 62.1
2'F-ANA at 3 8 10 11 13 | 443
2'F-ANA at 4 7 8 10 11 13 14 15 | 72.1
2'F-ANA at 2 5 6 7 8 9 10 11 12 13 | 90.8
2'F-ANA at 1 4 6 7 10 11 12 15 | 57.9
2'F-ANA at 2 3 4 8 10 11 13 14 | 158

Set 2
Cell line: sample D normal colon organoid
Technique: CellTiter-Glo
Tested at: 1 µM
Notes: mean of replicates
Reference: DMSO
SMILES | viability
CO[C@@H](C)c1c(Nc2ccc([C@H](N(C)C(=O)C3CCS(=O)(=O)CC3)C(F)(F)F)cc2)cnc2cc(Cl)nn12 | 83.7%
CC(=O)c1c(NS(C)(=O)=O)c2cc(-c3ccc(Cl)cc3)c(-c3ccc(Cl)cc3Cl)nc2n(C)c1=O | 93.5%
O=c1nc(-c2ccccn2)sc2ccccc12 | 116%
Cc1c(NC(=O)c2ccc(C(C)(C)C)cc2)cccc1-c1cn(C)c(=O)c(Nc2ccc(C(=O)N3CCOCC3)cc2)n1 | 82.9%

Set 3
Target: ATF3, bZIP domain (human)
Technique: DHFR protein complementation
Medium: yeast
Notes: single substitutions, most at no-binding floor
Reference: wild-type JUN-FOS pair
Reading: higher = stronger binding
Parent: JUN, bZIP domain (human); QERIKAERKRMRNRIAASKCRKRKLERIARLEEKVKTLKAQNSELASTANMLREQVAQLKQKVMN; partner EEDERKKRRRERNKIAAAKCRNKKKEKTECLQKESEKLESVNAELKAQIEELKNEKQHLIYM
Change | binding fitness [natural log]
E32F | -0.747
R30L | 0.0116
S47F | -0.0968
E33L | -0.143
E44C | -0.261
E44H | -0.219
E54L | -0.328
E33I | -0.251

Set 4
Target: Dual specificity tyrosine-phosphorylation-regulated kinase 3 (DYRK3, Homo sapiens, UniProt O43781)
UniProt O43781, sequence (whole entry, looked up): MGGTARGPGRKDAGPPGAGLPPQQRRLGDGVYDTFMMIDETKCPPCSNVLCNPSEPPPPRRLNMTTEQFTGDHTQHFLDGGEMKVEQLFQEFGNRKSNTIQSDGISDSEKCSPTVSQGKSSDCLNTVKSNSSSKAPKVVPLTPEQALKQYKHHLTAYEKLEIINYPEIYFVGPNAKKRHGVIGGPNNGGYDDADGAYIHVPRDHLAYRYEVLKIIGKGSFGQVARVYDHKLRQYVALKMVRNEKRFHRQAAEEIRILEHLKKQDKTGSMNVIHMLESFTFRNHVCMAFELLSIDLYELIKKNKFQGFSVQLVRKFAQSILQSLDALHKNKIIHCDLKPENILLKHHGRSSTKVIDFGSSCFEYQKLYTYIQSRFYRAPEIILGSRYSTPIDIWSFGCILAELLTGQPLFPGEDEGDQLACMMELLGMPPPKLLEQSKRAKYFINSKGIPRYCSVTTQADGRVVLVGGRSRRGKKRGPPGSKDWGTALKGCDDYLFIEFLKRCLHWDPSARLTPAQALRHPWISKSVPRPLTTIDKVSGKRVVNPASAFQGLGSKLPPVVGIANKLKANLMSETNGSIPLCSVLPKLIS
Observed: enzyme activity
Mode: inhibitor
Tested at: 0.5 µM
Reference: control
Structure (SMILES) | remaining activity
OCC(O)CCON=C1C(c2c(O)[nH]c3ccccc23)=Nc2ccccc21 (stereo not drawn) | 105%
N#CC(C#N)=C(N)/C(C#N)=C/c1ccc(O)cc1 | 97.7%
O=c1c2ccccc2[nH]c(=S)n1CCN1CCC(=C(c2ccc(F)cc2)c2ccc(F)cc2)CC1 | 101%
COc1cc2ncnc(Nc3ccc(Oc4ccccc4)cc3)c2cc1OC | 103%
Cc1nc(-c2ccccc2)c(-c2ccncc2)o1 | 106%
COc1ccc(OC)c2c(=S)c3ccccc3[nH]c12 | 98.2%
C#Cc1cccc(Nc2ncnc3cc(OCCOC)c(OCCOC)cc23)c1 | 83.5%
CC(C)[C@H](CO)Nc1nc(Nc2cc(N)cc(Cl)c2)c2ncn(C(C)C)c2n1 | 103%
COc1ccc(CNC(=O)Nc2ncc([N+](=O)[O-])s2)cc1 | 105%
O=S(=O)(c1cccc2cnccc12)N1CCCNCC1 | 89.1%
CO[C@H]1C[C@@H]2CC[C@@H](C)[C@@](O)(O2)C(=O)C(=O)N2CCCC[C@H]2C(=O)O[C@H]([C@H](C)C[C@@H]2CC[C@@H](O)[C@H](OC)C2)CC(=O)[C@H](C)/C=C(\C)[C@@H](O)[C@@H](OC)C(=O)[C@H](C)C[C@H](C)/C=C/C=C/C=C/1C | 105%
Cc1ccc(NC(=O)c2ccc(CN3CCN(C)CC3)cc2)cc1Nc1nc(-c2cccnc2)cs1 | 108%
Cc1ccc(Nc2nccc(N(C)c3ccc4c(C)n(C)nc4c3)n2)cc1S(N)(=O)=O | 95.9%
O=C1NC(=O)C(c2cn(CCCn3ccnc3)c3ccccc23)=C1Nc1ccccc1 | 103%
Oc1ccc(-c2nc(-c3ccncc3)c(-c3ccc(F)cc3)[nH]2)cc1 | 101%
Cc1cccc(-c2[nH]c(C(C)(C)C)nc2-c2ccc3c(c2)OCO3)n1 | 102%
